Assay results of several laboratories.
Each line is one published result; not all experiments were run side by side. ± gives the spread as reported.
FGFR1: Fibroblast growth factor receptor 1 (FGFR1, Homo sapiens, UniProt P11362)
Sequence of UniProt P11362 (whole entry, looked up): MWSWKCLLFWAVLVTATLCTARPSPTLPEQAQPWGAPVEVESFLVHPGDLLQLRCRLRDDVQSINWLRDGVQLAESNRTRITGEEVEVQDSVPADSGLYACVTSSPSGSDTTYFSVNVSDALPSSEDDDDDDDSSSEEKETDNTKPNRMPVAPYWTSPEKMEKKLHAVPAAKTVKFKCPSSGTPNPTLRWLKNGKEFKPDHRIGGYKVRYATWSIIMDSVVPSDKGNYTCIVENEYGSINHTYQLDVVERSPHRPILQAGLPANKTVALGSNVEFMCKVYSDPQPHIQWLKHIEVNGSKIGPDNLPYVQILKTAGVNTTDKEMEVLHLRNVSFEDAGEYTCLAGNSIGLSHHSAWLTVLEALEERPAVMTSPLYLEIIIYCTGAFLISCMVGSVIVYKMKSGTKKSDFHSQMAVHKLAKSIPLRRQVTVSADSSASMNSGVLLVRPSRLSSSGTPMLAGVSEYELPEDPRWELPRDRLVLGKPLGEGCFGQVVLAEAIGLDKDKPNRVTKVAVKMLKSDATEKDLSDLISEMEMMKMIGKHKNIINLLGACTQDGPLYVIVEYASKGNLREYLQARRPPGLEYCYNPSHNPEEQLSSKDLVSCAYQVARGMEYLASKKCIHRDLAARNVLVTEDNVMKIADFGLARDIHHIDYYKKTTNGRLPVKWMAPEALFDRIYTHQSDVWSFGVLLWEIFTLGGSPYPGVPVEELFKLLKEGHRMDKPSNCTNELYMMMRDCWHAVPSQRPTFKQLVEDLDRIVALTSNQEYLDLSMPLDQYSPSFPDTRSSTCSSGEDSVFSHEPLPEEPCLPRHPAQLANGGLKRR
NEK1: Serine/threonine-protein kinase Nek1 (NEK1, Homo sapiens, UniProt Q96PY6)
Sequence of UniProt Q96PY6 (whole entry, looked up): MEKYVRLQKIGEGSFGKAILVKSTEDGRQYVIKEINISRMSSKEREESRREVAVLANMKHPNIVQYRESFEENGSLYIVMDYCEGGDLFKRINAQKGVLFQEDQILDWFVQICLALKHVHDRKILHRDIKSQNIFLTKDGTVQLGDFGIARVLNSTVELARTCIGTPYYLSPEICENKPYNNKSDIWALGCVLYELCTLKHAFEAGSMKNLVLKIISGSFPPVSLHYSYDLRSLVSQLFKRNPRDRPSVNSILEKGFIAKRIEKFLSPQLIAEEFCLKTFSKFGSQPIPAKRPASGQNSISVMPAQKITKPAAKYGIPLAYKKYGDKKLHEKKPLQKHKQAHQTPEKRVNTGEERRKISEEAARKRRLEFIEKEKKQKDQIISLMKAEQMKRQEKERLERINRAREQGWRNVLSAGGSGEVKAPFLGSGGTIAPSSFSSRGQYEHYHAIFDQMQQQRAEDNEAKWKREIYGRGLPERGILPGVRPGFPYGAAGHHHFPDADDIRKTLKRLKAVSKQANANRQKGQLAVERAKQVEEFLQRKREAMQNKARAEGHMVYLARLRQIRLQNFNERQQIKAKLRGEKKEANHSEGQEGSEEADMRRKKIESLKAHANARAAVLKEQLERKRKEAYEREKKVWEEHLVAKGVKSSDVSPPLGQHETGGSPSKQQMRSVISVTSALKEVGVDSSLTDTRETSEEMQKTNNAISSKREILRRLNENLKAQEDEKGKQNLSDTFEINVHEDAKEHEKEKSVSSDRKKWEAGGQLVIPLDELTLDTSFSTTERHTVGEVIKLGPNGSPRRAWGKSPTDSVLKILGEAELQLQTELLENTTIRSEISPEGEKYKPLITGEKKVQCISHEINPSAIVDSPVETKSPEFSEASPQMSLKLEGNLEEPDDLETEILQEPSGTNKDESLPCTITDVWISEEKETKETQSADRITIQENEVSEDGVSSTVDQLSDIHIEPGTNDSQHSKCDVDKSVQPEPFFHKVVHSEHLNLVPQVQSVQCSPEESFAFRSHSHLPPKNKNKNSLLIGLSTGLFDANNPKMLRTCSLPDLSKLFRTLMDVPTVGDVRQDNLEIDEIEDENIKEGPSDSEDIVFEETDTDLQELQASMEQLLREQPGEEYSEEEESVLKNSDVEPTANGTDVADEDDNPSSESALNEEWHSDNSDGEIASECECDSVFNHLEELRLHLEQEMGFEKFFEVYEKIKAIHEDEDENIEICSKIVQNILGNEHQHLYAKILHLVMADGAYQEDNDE
Sequence of UniProt O96017 (whole entry, looked up): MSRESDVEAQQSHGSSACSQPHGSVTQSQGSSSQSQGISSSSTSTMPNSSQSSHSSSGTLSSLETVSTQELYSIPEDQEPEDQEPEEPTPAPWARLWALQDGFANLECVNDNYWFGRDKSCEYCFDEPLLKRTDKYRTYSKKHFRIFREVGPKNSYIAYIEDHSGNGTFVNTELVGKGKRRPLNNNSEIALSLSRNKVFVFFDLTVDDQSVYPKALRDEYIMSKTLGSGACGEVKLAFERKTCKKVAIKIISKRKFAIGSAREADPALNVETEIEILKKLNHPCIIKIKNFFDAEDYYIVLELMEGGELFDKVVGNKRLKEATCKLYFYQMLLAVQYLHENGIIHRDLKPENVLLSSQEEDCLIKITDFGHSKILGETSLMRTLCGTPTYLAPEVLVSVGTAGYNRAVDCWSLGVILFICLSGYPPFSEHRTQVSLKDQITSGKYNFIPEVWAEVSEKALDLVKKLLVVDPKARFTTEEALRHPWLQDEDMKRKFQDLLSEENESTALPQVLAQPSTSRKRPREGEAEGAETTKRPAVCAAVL
Sequence of UniProt Q6XUX3 (whole entry, looked up): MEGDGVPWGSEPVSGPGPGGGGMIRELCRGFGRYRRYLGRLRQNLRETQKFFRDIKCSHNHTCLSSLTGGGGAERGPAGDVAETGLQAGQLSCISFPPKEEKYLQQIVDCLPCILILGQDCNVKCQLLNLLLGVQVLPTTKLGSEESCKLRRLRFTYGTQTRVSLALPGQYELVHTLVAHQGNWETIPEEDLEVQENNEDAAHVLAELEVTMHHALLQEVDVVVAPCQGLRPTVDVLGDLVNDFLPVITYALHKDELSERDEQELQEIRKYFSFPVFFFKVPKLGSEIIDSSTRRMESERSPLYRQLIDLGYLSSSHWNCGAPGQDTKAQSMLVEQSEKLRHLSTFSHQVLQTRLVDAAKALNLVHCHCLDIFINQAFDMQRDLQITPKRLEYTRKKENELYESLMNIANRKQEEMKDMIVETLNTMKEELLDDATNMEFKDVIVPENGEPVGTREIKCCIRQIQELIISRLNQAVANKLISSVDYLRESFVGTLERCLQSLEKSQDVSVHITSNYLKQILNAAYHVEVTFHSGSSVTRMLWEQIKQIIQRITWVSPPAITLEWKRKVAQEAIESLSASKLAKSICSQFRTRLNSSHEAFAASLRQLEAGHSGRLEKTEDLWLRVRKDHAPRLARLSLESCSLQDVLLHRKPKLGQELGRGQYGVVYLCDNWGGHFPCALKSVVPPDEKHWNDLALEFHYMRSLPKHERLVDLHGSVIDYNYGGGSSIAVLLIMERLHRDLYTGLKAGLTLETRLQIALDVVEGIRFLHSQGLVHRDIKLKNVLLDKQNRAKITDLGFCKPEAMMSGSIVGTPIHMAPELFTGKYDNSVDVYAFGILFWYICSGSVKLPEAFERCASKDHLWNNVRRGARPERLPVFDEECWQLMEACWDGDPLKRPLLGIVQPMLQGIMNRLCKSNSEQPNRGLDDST
Sequence of UniProt Q96RG2 (whole entry, looked up): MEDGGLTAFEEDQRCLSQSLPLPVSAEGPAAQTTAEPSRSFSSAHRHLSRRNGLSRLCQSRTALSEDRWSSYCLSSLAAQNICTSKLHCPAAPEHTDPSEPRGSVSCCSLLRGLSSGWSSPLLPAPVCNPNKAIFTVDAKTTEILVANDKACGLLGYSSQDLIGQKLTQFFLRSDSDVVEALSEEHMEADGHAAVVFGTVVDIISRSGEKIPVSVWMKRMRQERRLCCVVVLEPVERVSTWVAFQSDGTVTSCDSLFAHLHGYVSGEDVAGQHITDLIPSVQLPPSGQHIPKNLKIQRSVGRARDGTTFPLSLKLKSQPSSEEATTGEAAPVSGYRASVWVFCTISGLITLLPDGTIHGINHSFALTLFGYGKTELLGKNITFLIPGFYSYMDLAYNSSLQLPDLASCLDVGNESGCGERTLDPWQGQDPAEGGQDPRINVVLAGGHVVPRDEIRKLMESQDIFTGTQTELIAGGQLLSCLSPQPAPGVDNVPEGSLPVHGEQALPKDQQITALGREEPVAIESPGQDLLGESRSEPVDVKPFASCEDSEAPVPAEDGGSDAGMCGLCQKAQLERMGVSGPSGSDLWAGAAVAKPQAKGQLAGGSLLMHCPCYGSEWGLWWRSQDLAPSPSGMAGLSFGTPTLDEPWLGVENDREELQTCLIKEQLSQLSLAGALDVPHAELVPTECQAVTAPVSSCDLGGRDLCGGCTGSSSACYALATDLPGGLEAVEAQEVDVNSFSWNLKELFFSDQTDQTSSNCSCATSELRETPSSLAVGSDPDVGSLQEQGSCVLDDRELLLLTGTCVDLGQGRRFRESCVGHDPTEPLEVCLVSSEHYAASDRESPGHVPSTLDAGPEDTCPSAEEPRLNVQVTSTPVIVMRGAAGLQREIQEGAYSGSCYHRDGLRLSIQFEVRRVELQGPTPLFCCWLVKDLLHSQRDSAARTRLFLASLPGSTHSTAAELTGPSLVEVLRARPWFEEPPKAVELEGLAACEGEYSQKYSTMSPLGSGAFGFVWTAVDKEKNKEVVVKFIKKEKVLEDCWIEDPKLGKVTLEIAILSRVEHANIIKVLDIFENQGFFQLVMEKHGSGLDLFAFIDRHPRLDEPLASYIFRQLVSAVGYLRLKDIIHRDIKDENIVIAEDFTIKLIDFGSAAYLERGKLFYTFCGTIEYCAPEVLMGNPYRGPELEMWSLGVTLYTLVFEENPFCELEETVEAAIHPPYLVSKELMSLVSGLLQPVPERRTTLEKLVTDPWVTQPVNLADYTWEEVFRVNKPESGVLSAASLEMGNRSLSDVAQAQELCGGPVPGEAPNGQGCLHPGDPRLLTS

C=CC(=O)N1CCC[C@@H](n2nc(-c3ccc(Oc4ccccc4)cc3)c3c(N)ncnc32)C1 — remaining activity (FGFR1; 0.1 µM): 98.8%
COc1cc(-c2cncc3c2CN(C)Cc2cc(N4CCNCC4)ccc2-3)cc(OC)c1OC — remaining activity (NEK1; kinase activity; 1 µM, human enzyme, added: ATP 10 µM; reference: DMSO control): 112%
O=C(NC1CCC1)c1ccc2nc(-c3cccc(NS(=O)(=O)NCCN4CCCCC4)c3)cn2c1 — remaining activity (Dual serine/threonine and tyrosine protein kinase (DSTYK, Homo sapiens, UniProt Q6XUX3); enzyme activity; 10 µM): 88%
COc1cc(Nc2ncc3c(n2)-c2ccc(Cl)cc2C(c2c(F)cccc2OC)=NC3)ccc1C(=O)O — remaining activity (STK24; kinase activity; 1 µM): 104%
COc1cc(N2CCN(C)CC2)ccc1Nc1nc(N)n(C(=S)NCc2c(Cl)cccc2Cl)n1 — remaining activity (NEK1; enzyme activity; 10 µM; reference: control): 27%
COc1ccc(F)cc1C(=O)NCc1ccc(-c2nn([C@@H](C)C(F)(F)F)c(N)c2C(N)=O)cc1 — remaining activity (FGFR1; kinase activity, inhibitor, HotSpot radiometric; 1000 nM, added: ATP at Km): 93.8 ± 2.1%
Cc1cc(Nc2cc(N3CCN(C)CC3)nc(Sc3ccc(NC(=O)C4CC4)cc3)n2)[nH]n1 — remaining activity (PAS domain-containing serine/threonine-protein kinase (PASK, Homo sapiens, UniProt Q96RG2); kinase activity, KinaseProfiler; 0.03 µM, species human; reference: control): 53%
COc1cc(F)ccc1-c1ncnc(Nc2cccc(C[S@](C)(=N)=O)c2)n1 — remaining activity (Serine/threonine-protein kinase Chk2 (CHEK2, Homo sapiens, UniProt O96017); kinase activity; 10 µM, added: 10 µM ATP): 91%
O=C(O)c1ccc(Nc2ncc3c(n2)-c2ccc(Cl)cc2C(c2c(F)cccc2F)=NC3)cc1 — remaining activity (EphA3(h); kinase activity; 1 µM): 88%

A few entries again:
COc1ccc(F)cc1C(=O)NCc1ccc(-c2nn([C@@H](C)C(F)(F)F)c(N)c2C(N)=O)cc1 — remaining activity (FGFR1; kinase activity, inhibitor, HotSpot radiometric; 1000 nM, added: ATP at Km): 93.8 ± 2.1%
